Published values gathered from unrelated publications.
Lines come from different studies, so protocols differ.
CA9: Carbonic anhydrase 9 (CA9, Homo sapiens, UniProt Q16790)
MTNR1A: Melatonin receptor type 1A (MTNR1A, Homo sapiens, UniProt P48039)
UniProt P48039, sequence (whole entry, looked up): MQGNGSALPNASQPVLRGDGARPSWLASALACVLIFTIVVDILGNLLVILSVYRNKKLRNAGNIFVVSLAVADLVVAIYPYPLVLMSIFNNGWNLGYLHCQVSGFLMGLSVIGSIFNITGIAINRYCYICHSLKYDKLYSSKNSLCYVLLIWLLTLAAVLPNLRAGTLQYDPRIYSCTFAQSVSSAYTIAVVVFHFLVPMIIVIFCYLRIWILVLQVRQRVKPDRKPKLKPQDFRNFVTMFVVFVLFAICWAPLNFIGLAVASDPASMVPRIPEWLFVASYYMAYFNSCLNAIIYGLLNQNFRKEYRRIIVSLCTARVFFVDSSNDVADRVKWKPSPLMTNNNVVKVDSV
UniProt P0C264, sequence (whole entry, looked up): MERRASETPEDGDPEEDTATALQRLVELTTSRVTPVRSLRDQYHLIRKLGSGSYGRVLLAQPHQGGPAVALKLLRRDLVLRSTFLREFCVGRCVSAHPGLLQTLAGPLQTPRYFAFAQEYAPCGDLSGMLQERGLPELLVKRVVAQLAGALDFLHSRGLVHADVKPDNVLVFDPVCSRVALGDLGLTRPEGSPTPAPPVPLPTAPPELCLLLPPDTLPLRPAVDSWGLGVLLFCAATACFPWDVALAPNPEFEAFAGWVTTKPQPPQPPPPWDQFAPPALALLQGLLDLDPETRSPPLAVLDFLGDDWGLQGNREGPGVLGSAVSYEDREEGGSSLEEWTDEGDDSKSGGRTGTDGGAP

Cc1cc(C(=O)COC(=O)c2ccc(Cl)c(S(N)(=O)=O)c2)c(C)n1Cc1cccs1  IC50 (CA9; enzyme activity, inhibitor): 437 nM
O=c1cc(-c2ccc(O)c(O)c2)oc2cc(O)cc(O)c12  inhibition (Helicobacter pylori; microbial growth, broth dilution; 15.63 µg/mL): 100%
COc1cccc(OC)c1-c1cc(C(=O)NC2(C(=O)O)C3CC4CC(C3)CC2C4)nn1-c1ccc(C(=O)N(C)CCCN(C)CCCN(C)C(=O)CN2CCN(CC(=O)[O-])CCN(CC(=O)[O-])CCN(CC(=O)[O-])CC2)cc1C(C)C.[177Lu+3] (centres unmarked)  tracer uptake (HT-29 tumour model; host not given, pancreas; 24 h, tumour-bearing): 0.1 %ID/g
COc1ccc(CN2CCOc3ccc(Br)cc32)cc1O  EC50 (MTNR1A; cAMP, agonist, luciferase): 55.3 nM
C=C[C@@]1(C)C=C2CC[C@@H]3[C@](C)(CCC[C@@]3(C)C(=O)O)[C@H]2CC1  inhibition (Helicobacter pylori; microbial growth, broth dilution; 31.25 µg/mL): 100%
[2H]c1c([2H])c([C@]2([2H])CCCN2C(=O)C(C)(C)Oc2ccc3cn[nH]c3c2)c([2H])c([2H])c1C([2H])([2H])[2H]  remaining binding (SBK3 (Homo sapiens, UniProt P0C264); binding, competition with immobilised ligand; 1 µM): 96%
CCn1nc(C(=O)N2CCc3c(cccc3OC)C2)ccc1=O  EC50 (MTNR1A; cAMP, agonist, luciferase): 44.9 nM
NS(=O)(=O)c1ccc(S(=O)(=O)N2CCN(C(=O)c3ccc(-n4cnc5ccccc54)cc3)CC2)cc1  IC50 (CA9; enzyme activity, inhibitor): 442 nM

Some of these lines once more:
[2H]c1c([2H])c([C@]2([2H])CCCN2C(=O)C(C)(C)Oc2ccc3cn[nH]c3c2)c([2H])c([2H])c1C([2H])([2H])[2H]  remaining binding (SBK3 (Homo sapiens, UniProt P0C264); binding, competition with immobilised ligand; 1 µM): 96%
